Published values of several laboratories.
Parts stem from different laboratories: compare values within a part only.
Sequence of UniProt P07333 (whole entry, looked up): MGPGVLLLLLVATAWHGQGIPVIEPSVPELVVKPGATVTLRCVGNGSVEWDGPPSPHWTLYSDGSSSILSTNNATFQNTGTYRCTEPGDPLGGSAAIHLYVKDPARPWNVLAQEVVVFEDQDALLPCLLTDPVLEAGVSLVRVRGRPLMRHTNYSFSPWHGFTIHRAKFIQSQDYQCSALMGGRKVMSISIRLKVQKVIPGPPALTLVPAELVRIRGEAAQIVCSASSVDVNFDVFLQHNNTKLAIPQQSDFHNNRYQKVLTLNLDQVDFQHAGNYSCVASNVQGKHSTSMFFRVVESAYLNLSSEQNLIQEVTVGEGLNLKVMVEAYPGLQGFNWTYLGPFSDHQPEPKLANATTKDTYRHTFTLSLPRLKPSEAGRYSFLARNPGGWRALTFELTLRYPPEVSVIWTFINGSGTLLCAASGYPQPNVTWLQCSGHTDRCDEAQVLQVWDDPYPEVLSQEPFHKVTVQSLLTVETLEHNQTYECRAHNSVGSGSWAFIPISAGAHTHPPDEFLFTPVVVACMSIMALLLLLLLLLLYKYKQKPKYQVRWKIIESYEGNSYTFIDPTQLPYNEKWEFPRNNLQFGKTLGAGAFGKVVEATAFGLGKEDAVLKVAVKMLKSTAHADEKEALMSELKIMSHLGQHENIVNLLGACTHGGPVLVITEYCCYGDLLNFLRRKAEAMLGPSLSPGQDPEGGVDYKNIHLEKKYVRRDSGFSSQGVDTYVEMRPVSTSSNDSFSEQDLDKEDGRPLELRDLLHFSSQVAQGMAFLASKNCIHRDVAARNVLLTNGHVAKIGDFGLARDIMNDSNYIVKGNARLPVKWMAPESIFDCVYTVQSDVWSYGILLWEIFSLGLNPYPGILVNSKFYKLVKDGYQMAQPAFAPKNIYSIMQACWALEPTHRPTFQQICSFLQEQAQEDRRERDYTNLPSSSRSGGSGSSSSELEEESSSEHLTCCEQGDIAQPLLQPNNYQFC
Sequence of UniProt Q8WXR4 (whole entry, looked up): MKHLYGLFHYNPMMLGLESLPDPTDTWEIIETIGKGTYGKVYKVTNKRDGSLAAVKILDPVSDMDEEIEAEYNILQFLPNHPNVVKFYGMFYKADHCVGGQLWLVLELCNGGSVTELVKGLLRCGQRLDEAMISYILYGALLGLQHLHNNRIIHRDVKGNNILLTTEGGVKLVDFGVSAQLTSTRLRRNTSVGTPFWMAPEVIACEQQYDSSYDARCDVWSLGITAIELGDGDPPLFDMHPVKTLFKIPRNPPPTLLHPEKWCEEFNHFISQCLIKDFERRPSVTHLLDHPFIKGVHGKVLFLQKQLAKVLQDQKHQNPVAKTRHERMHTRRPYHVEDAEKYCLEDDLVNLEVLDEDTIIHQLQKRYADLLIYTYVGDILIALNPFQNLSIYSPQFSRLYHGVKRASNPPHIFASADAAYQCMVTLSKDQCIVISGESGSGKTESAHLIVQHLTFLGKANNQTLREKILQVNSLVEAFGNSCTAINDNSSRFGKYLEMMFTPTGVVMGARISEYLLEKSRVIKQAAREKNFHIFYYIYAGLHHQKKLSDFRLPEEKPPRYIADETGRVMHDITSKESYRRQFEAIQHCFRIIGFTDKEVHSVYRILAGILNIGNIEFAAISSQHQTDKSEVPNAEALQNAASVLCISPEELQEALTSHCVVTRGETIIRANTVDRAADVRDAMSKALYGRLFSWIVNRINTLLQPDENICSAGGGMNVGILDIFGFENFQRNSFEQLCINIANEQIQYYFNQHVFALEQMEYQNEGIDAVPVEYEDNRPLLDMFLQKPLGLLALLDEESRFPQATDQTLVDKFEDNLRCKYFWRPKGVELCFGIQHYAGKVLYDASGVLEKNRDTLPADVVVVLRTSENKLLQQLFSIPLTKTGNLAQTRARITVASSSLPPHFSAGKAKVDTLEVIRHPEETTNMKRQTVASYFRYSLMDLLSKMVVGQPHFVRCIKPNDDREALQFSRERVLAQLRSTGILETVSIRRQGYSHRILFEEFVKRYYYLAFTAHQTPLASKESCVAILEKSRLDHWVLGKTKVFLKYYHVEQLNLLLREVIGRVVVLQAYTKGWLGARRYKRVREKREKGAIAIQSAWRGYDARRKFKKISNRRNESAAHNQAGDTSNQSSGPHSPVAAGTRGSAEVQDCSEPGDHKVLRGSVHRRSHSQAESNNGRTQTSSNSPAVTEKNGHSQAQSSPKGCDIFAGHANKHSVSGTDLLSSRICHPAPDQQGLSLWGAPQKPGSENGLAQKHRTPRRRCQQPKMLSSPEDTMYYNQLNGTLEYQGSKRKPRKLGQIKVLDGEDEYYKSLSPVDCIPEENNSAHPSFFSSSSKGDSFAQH
Sequence of UniProt Q9NRM7 (whole entry, looked up): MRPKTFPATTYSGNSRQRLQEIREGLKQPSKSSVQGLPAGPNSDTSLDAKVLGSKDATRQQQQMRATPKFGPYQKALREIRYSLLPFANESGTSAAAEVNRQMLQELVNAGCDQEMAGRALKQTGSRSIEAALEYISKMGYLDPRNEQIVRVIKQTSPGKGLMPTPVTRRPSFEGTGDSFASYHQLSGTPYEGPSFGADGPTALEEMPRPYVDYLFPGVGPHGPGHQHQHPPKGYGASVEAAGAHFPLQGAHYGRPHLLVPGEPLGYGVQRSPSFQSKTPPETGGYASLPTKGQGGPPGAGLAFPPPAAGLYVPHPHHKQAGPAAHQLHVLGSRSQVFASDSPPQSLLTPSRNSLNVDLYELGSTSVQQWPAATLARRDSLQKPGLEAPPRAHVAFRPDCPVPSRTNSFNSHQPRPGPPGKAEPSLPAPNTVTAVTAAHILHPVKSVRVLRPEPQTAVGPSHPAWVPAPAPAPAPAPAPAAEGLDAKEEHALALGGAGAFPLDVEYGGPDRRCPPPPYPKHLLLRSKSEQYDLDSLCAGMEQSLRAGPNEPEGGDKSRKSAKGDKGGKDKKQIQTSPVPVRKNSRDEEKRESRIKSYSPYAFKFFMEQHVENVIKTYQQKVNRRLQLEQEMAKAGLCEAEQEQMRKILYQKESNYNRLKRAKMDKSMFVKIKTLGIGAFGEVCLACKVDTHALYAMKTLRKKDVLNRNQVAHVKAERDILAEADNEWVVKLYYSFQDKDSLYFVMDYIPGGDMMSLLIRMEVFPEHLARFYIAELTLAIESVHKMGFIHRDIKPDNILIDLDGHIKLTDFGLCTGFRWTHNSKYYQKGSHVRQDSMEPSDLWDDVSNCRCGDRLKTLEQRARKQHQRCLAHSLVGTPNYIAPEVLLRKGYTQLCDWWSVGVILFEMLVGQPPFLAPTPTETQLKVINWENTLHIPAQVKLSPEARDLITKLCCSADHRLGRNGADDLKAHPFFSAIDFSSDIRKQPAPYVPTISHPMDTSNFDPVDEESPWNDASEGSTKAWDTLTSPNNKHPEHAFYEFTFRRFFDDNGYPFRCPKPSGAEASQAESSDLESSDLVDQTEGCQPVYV
Sequence of UniProt Q8IW41 (whole entry, looked up): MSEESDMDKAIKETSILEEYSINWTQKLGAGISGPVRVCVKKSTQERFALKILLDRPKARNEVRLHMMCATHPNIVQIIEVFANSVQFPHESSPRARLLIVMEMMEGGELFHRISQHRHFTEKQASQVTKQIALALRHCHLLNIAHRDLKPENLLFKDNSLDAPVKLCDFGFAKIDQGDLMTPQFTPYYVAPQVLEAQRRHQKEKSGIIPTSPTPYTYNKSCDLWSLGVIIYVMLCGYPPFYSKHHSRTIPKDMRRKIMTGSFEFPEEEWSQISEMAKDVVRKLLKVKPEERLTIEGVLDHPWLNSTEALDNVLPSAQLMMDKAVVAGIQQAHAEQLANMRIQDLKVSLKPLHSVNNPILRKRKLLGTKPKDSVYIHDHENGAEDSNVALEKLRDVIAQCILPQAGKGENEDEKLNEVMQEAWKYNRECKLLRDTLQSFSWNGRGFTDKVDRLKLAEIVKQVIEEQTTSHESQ

Series 1
Target: Calcium/calmodulin-dependent protein kinase type II subunit alpha (CAMK2A, Homo sapiens, UniProt Q9UQM7)
Sequence of UniProt Q9UQM7 (whole entry, looked up): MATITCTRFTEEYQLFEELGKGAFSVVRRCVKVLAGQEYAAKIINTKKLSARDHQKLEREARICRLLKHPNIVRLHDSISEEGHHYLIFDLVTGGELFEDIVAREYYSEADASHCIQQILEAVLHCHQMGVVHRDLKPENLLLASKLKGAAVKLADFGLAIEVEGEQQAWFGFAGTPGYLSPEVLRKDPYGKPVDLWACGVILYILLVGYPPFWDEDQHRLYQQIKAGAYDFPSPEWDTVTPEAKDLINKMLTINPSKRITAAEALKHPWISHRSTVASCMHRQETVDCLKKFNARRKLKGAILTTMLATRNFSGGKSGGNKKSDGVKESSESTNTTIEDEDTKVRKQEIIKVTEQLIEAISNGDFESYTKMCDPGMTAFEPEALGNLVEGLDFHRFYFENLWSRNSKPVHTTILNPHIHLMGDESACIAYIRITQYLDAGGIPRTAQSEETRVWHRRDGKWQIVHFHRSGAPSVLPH
Read-out: enzyme activity
Action: inhibitor
Tested at: 10 µM
SMILES	inhibition [%]
C[C@@H](O)[C@H]1C(=O)N2C(C(=O)[O-])=C(SC3Cn4cnc[n+]4C3)[C@H](C)[C@H]12 (stereo partly shown)	-11
C=Cc1ccc(O)c(OC)c1	-4
CC[C@H](C)C[C@H](C)CCCCCCCCC(=O)N[C@H]1C[C@@H](O)[C@@H](O)NC(=O)[C@@H]2[C@@H](O)CCN2C(=O)[C@H]([C@H](O)CC(N)=O)NC(=O)[C@H]([C@H](O)[C@@H](O)c2ccc(O)cc2)NC(=O)[C@@H]2C[C@@H](O)CN2C(=O)[C@H]([C@@H](C)O)NC1=O	-1
CC1CS(=O)(=O)CCN1/N=C/c1ccc([N+](=O)[O-])o1 (stereo not shown)	-5
CC1=NCC[C@@H](C(=O)O)N1	15
C=C1C[C@@]23CC[C@H]4[C@@](C)(CCC[C@@]4(C)C(=O)O[C@@H]4O[C@H](CO)[C@@H](O)[C@H](O)[C@H]4O)[C@@H]2CC[C@]1(O[C@@H]1O[C@H](CO)[C@@H](O)[C@H](O)[C@H]1O[C@@H]1O[C@H](CO)[C@@H](O)[C@H](O)[C@H]1O)C3	22
CC(=O)OCC(=O)[C@@]1(O)[C@H](C)C[C@H]2[C@@H]3CCC4=CC(=O)C=C[C@]4(C)[C@@]3(F)[C@@H](O)C[C@@]21C	-2
CC(=O)O[C@@H]1CC[C@@]2(C)[C@@H](CC[C@]3(C)[C@@H]2CC=C2[C@@H]4CC(C)(C)CC[C@]4(C)CC[C@]23C)[C@@]1(C)C(=O)O	-2

Series 2
SMILES: Cc1c(C(=O)O)cc(-c2ccc(C3CCNCC3)cc2)c2ccc(-c3ccc(C(F)(F)F)cc3)cc12
Tested at: 1 µM
target	read-out	method	remaining binding [%]
Calcium/calmodulin-dependent protein kinase type 1 (CAMK1, Homo sapiens, UniProt Q14012)	cell-free assay	competition with immobilised ligand	100
Serine/threonine-protein kinase LATS2 (LATS2, Homo sapiens, UniProt Q9NRM7)	binding	competition with immobilised ligand	100
Misshapen-like kinase 1 (MINK1, Homo sapiens, UniProt Q8N4C8)	binding	competition with immobilised ligand	100
Phosphatidylinositol 3-kinase catalytic subunit type 3 (PIK3C3, Homo sapiens, UniProt Q8NEB9)	cell-free assay	competition with immobilised ligand	100
Serine/threonine-protein kinase 25 (STK25, Homo sapiens, UniProt O00506)	binding	competition with immobilised ligand	100
Vascular endothelial growth factor receptor 1 (FLT1, Homo sapiens, UniProt P17948)	cell-free assay	competition with immobilised ligand	80
Activin receptor type-2B (ACVR2B, Homo sapiens, UniProt Q13705)	binding	competition with immobilised ligand	88
Serine/threonine-protein kinase SIK1 (SIK1, Homo sapiens, UniProt P57059)	–	competition binding	94
Ribosomal protein S6 kinase alpha-3, C-terminal kinase domain (RPS6KA3, Homo sapiens, UniProt P51812)	binding	competition with immobilised ligand	80
MAP kinase-activated protein kinase 5 (MAPKAPK5, Homo sapiens, UniProt Q8IW41)	binding	competition with immobilised ligand	100
Tyrosine-protein kinase JAK1, JH2 (JAK1, Homo sapiens, UniProt P23458)	binding	competition with immobilised ligand	79
Cyclin-dependent kinase 18 (CDK18, Homo sapiens, UniProt Q07002)	binding	competition with immobilised ligand	100
Serine/threonine-protein kinase DCLK1 (DCLK1, Homo sapiens, UniProt O15075)	binding	competition with immobilised ligand	81
Mitogen-activated protein kinase kinase kinase 1 (MAP3K1, Homo sapiens, UniProt Q13233)	binding	competition with immobilised ligand	100
Epidermal growth factor receptor (EGFR, Homo sapiens, UniProt P00533, L858R/T790M)	cell-free assay	competition with immobilised ligand	100
Myosin-IIIb (MYO3B, Homo sapiens, UniProt Q8WXR4)	binding	competition with immobilised ligand	75
Membrane-associated tyrosine- and threonine-specific cdc2-inhibitory kinase (PKMYT1, Homo sapiens, UniProt Q99640)	binding	competition with immobilised ligand	100
Microtubule-associated serine/threonine-protein kinase 1 (MAST1, Homo sapiens, UniProt Q9Y2H9)	binding	competition with immobilised ligand	100
Receptor-type tyrosine-protein kinase FLT3 (FLT3, Homo sapiens, UniProt P36888, D835Y)	binding	competition with immobilised ligand	100
Homeodomain-interacting protein kinase 4 (HIPK4, Homo sapiens, UniProt Q8NE63)	binding	competition with immobilised ligand	100
Serine/threonine-protein kinase 24 (STK24, Homo sapiens, UniProt Q9Y6E0)	binding	competition with immobilised ligand	100
Serine/threonine-protein kinase N2 (PKN2, Homo sapiens, UniProt Q16513)	binding	competition with immobilised ligand	100
Tyrosine-protein kinase Lyn (LYN, Homo sapiens, UniProt P07948)	cell-free assay	competition with immobilised ligand	90
cAMP-dependent protein kinase catalytic subunit PRKX (PRKX, Homo sapiens, UniProt P51817)	cell-free assay	competition with immobilised ligand	100
Macrophage colony-stimulating factor 1 receptor, autoinhibited (CSF1R, Homo sapiens, UniProt P07333)	cell-free assay	competition with immobilised ligand	96

Series 3
Cell line: Huh-7
Tested at: 10 µM
Time: 24 h
Compound	viability [%]
CCCCNc1cc(C(=O)O)cc(S(N)(=O)=O)c1Oc1ccccc1	97.2
CC(C)(Sc1cc(C(C)(C)C)c(O)c(C(C)(C)C)c1)Sc1cc(C(C)(C)C)c(O)c(C(C)(C)C)c1	101
c1ccc2[nH]c(-c3cscn3)nc2c1	101
C[C@@H](NCCc1ccc(O)cc1)[C@@H](O)c1ccc(O)cc1 (racemic)	96.6
Cc1cc(C(C)(C)C)c(O)c(C)c1CC1=NCCN1	98.1
Cc1ccccc1OCC(O)CO (stereo not shown)	101
CC(=O)Oc1ccc(C(c2ccc(OC(C)=O)cc2)c2ccccn2)cc1	103
Cc1cccc(CN2CCN(C(c3ccccc3)c3ccc(Cl)cc3)CC2)c1 (stereo not shown)	85.8
COc1cc(NS(C)(=O)=O)ccc1Nc1c2ccccc2nc2ccccc12	48.3
Cc1nc(C)c(Cl)c(O)c1Cl	96.5

Series 4
Target: Protein kinase C beta type, isoform beta-II (PRKCB, Homo sapiens, UniProt P05771)
Sequence of UniProt P05771 (whole entry, looked up): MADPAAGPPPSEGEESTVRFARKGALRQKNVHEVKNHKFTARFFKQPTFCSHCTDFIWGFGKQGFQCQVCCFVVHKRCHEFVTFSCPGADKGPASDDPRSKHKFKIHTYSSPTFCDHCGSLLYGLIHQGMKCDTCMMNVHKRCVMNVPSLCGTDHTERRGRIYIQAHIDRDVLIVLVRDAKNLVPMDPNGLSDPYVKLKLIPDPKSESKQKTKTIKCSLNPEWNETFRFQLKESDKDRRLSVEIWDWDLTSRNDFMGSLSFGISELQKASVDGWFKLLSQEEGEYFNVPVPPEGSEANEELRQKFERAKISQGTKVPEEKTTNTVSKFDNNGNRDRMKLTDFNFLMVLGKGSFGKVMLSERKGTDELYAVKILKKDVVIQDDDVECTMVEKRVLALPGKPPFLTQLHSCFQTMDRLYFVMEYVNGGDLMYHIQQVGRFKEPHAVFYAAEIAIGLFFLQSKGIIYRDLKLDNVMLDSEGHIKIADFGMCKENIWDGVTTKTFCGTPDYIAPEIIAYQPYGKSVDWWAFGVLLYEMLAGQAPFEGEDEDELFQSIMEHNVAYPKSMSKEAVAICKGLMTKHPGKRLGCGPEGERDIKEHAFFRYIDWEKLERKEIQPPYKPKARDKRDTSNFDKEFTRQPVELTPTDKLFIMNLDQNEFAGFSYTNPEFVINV
Read-out: enzyme activity
Action: inhibitor
Tested at: 0.5 µM
Relative to: control
Compound	remaining activity [%]
CC(C)n1cnc2c(Nc3cccc(Cl)c3)nc(NCCO)nc21	99.7
CNc1cc2c(Nc3cccc(Br)c3)ncnc2cn1	102
NC(=O)c1cccc(-c2cc(Nc3ccc(OC(F)(F)F)cc3)ncn2)c1	122
c1cc(-c2cnn3cc(-c4ccc(OCCN5CCCCC5)cc4)cnc23)ccn1	127
FC(F)(F)c1ccc(/C=C/c2nc(COc3ccc(CCCCn4ccnn4)cc3)co2)cc1	93.1
COc1cc2c(N3CCN(C(=O)Nc4ccc(OC(C)C)cc4)CC3)ncnc2cc1OCCCN1CCCCC1	93.1
O=Nc1c(-c2c(O)[nH]c3ccccc23)[nH]c2ccccc12	101
Clc1ccc(Nc2nnc(Cc3ccncc3)c3ccccc23)cc1	97.2
O=C(c1ccccc1)c1ccc(N2CCOCC2)cc1O	99.2
O=C(O)/C=C/c1cc(Br)c(Br)c(Br)c1Br	84.7
NC(=O)c1ccc(-c2nc(-c3ccc4c(c3)OCCO4)c(-c3ccccn3)[nH]2)cc1	95.2
CCN(CC)CCCCN1c2ccccc2Oc2ccc(Cl)cc21	102
C[C@@H](N)[C@H]1CC[C@H](C(=O)Nc2ccncc2)CC1	124
O=C1c2ccccc2-c2nc3nnnn3nc21	29.3
CCCCc1c(-c2ccc(O)cc2)[nH]c2nccnc12	118
CC(C)N(CCC(=O)c1ccc2ccccc2c1)Cc1ccccc1	101
COc1cc2c(Nc3ccc(Br)cc3F)ncnc2cc1OCC1CCN(C)CC1	91.6
Nc1nc(Nc2ccc(S(N)(=O)=O)cc2)nn1C(=S)Nc1c(F)cccc1F	74.5
CC(C)(C)c1nc2c3cc[nH]c(=O)c3c3cc(F)ccc3c2[nH]1	90.6
O=C1NC(=O)/C(=C/c2ccc3c(c2)OC(F)(F)O3)S1	97.6
O=c1c(-c2ccc(F)cc2)c(-c2ccncc2)[nH]n1-c1ccc(Cl)cc1	92.4

For quick reference, copied from above (series 3):
Compound	viability [%]
c1ccc2[nH]c(-c3cscn3)nc2c1	101
C[C@@H](NCCc1ccc(O)cc1)[C@@H](O)c1ccc(O)cc1 (racemic)	96.6
Cc1cc(C(C)(C)C)c(O)c(C)c1CC1=NCCN1	98.1
Cc1ccccc1OCC(O)CO (stereo not shown)	101
CC(=O)Oc1ccc(C(c2ccc(OC(C)=O)cc2)c2ccccn2)cc1	103
Cc1cccc(CN2CCN(C(c3ccccc3)c3ccc(Cl)cc3)CC2)c1 (stereo not shown)	85.8
